Assay results collected from several papers.
Compare with care: the assays were run in different laboratories. ± marks the error that the study gave.
U2AF2: U2AF2 148-342 (Homo sapiens, UniProt P26368)
B1: PHYA (Arabidopsis thaliana, UniProt P14712); phytochromobilin thioether linked; chain GMSGSRPTQSSEGSRRSRHSARIIAQTTVDAKLHADFEESGSSFDYSTSVRVTGPVVENQPPRSDKVTTTYLHHIQKGKLIQPFGCLLALDEKTFKVIAYSENASELLTMASHAVPSVGEHPVLGIGTDIRSLFTAPSASALQKALGFGDVSLLNPILVHCRTSAKPFYAIIHRVTGSIIIDFEPVKPYEVPMTAAGALQSYKLAAKAITRLQSLPSGSMERLCDTMVQEVFELTGYDRVMAYKFHEDDHGEVVSEVTKPGLEPYLGLHYPATDIPQAARFLFMKNKVRMIVDCNAKHARVLQDEKLSFDLTLCGSTLRAPHSCHLQYMANMDSIASLVMAVVVNEEDGEGDAPDATTQPQKRKRLWGLVVCHNTTPRFVPFPLRYACEFLAQVFAIHVNKEVELDNQMVEKNILRTQTLLCDMLMRDAPLGIVSQSPNIMDLVKCDGAALLYKDKIWKLGTTPSEFHLQEIASWLCEYHMDSTGLSTDSLHDAGFPRALSLGDSVCGMAAVRISSKDMIFWFRSHTAGEVRWGGAKHDPDDRDDARRMHPRSSFKAFLEVVKTRSLPWKDYEMDAIHSLQLILRNAFKDSETTDVNTKVIYSKLNDLKIDGIQELEAVTSEMVRLIETATVPILAVDSDGLVNGWNTKIAELTGLSVDEAIGKHFLTLVEDSSVEIVKRMLENALEGTEEQNVQFEIKTHLSRADAGPISLVVNACASRDLHENVVGVCFVAHDLTGQKTVMDKFTRIEGDYKAIIQNPNPLIPPIFGTDEFGWCTEWNPAMSKLTGLKREEVIDKMLLGEVFGTQKSCCRLKNQEAFVNLGIVLNNAVTSQDPEKVSFAFFTRGGKYVECLLCVSKKLDREGVVTGVFCFLQLASHELQQALHVQRLAERTAVKRLKALAYIKRQIRNPLSGIMFTRKMIEGTELGPEQRRILQTSALCQKQLSKILDDSDLESIIEGCLDLEMKEFTLNEVLTASTSQVMMKSNGKSVRITNETGEEVMSDTLYGDSIRLQQVLADFMLMAVNFTPSGGQLTVSASLRKDQLGRSVHLANLEIRLTHTGAGIPEFLLNQMFGTEEDVSEEGLSLMVSRKLVKLMNGDVQYLRQAGKSSFIITAELAAANK
B2: human ARF3; sequence looked up; chain GNIFGNLLKSLIGKKEMRILMVGLDAAGKTTILYKLKLGEIVTTIPTIGFNVETVEYKNISFTVWDVGGQDKIRPLWRHYFQNTQGLIFVVDSNDRERVNEAREELMRMLAEDELRDAVLLVFANKQDLPNAMNAAEITDKLGLHSLRHRNWYIQATCATSGDGLYEGLDWLANQLKNKK
B3: ACAT1 35-427 Y214F (Homo sapiens, UniProt P24752); pY407; chain SKPTLKEVVIVSATRTPIGSFLGSLSLLPATKLGSIAIQGAIEKAGIPKEEVKEAYMGNVLQGGEGQAPTRQAVLGAGLPISTPCTTINKVCASGMKAIMMASQSLMCGHQDVMVAGGMESMSNVPYVMNRGSTPYGGVKLEDLIVKDGLTDVYNKIHMGSCAENTAKKLNIARNEQDAFAINSYTRSKAAWEAGKFGNEVIPVTVTVKGQPDVVVKEDEEYKRVDFSKVPKLKTVFQKENGTVTAANASTLNDGAAALVLMTADAAKRLNVTPLARIVAFADAAVEPIDFPIAPVYAASMVLKDVGLKKEDIAMWEVNEAFSLVVLANIKMLEIDPQKVNINGGAVSLGHPIGMSGARIVGHLTHALKQGEYGLASICNGGGGASAMLIQKL
B4: protein (Bacillus pumilus, UniProt A3FMN7); sequence looked up; chain MNYNPEEQFRCTIIRGKAKNMLDNLLPAYANIIDDICPCDKASFVKDFNNRLIEILGEETTKKTLDNHRTEIAGKLFGMFYEDDEVIFPSGRTNKYIEDSDQPAFFKDICFKFQFPNGMDKLDKVIEKVGAKIQIRQFPYILQVLLTADNNNIQLSKDDIAYYVLNSLQVLQGKIKPIEVIEKIIEDRSNDITKKVRHPGKETSYSMQHIREQLNYLELANLIRIDGNLVKLNYREAENINYIAQFWGNKPEFNAYKYDFTSEDDKKSFFKDWQQYYSNVNSHKSFTTTVEALDVYPTKPTYTIDKNALGDEGENLVLEYEKERVKLFDPSLVRKVVHLGKTKGLGYDIQSVVAEDGDFAEFVKYIEVKSTKRVTVPNLDDPSWIDTINLTRNEWIAATQHKSSYYLYRVYFTPGLATMYVINDPFTKNKDDILRAKPVSYRLDFSNKAVDFMVTEEKEEYR
B5: S100B (Homo sapiens, UniProt P04271); sequence looked up; chain MSELEKAMVALIDVFHQYSGREGDKHKLKKSELKELINNELSHFLEEIKEQEVVDKVMETLDNDGDGECDFQEFMAFVAMVTTACHEFFEHE
B6: spnA dimerization element 1877-1944 (Saccharopolyspora spinosa, UniProt Q9ALM6); sequence looked up; chain ALRESSAGDMGRRVEAKFWGAVEHEDVESLARVLGIVDDGAAVDSLRSALPVLAGWQRTRTTESIMDQ
B7: GGPS1 Y246D (Homo sapiens, UniProt O95749); sequence looked up; chain MEKTQETVQRILLEPYKYLLQLPGKQVRTKLSQAFNHWLKVPEDKLQIIIEVTEMLHNASLLIDDIEDNSKLRRGFPVAHSIYGIPSVINSANYVYFLGLEKVLTLDHPDAVKLFTRQLLELHQGQGLDIYWRDNYTCPTEEEYKAMVLQKTGGLFGLAVGLMQLFSDYKEDLKPLLNTLGLFFQIRDDYANLHSKEYSENKSFCEDLTEGKFSFPTIHAIWSRPESTQVQNILRQRTENIDIKKDCVHYLEDVGSFEYTRNTLKELEAKAYKQIDARGGNPELVALVKHLSKMFKEENE
B8: Gm4951 N86K (Mus musculus, UniProt Q3UED7); sequence looked up; chain MGQLFSSRRSEDQDLSSSFIEYLKECEKGINIIPHEIITSIEINMKKGNIQEVNSTVRDMLREIDNTPLNVALTGETGSGKSSFIKTLRGIGHEEGGAAHTGVTDKTKERHPYEHPKMPNVVFWDLPGTGSEDFQPKTYLEKMKFYEYDFFIIISATRFKKNDIDLAKAIGIMKKEFYFVRTQVDSDLRNEEDFKPQTFDREKVLQDIRLNCVNTFRENGIAEPPIFLISNKNVCHYDFPVLMDKLISDLPVFKRQNFMFSLPNITDSVIEKKRNFLRWKTWLEGFADGLLSFFLESDLETLEKSMKFYRTVFGVDDASLQRLARAWEIDQVDQVRAMIKSPAVFTPTDEETIQERLSRYNQEFCLANGYLLPKNHCREILYLKLYFLDMVTEDAKTLLKEICLRN
B9: ddrC (Deinococcus radiodurans, UniProt Q9RYE6); sequence looked up; chain MKNAPLTLNFGSVRLPVSADGLLHAPTAQQQLGLTQSWEAALVEHGLPETYRDFGAGPEAAVSVPDFVALAFALDTPEARRWQKRARELLARAMQGDVRVAAQIAERNPEPDARRWLAARLESTGARRELLATVARHGGEGRVYGQLGSISNRTVLGKDSASVRQERGVKATRDGLTSAELLRLAYIDTVTARAIQESEARGNAAILTLHEQVARSERQSWERAGQVQRVG
B10: SLFN14 E206A/E211A (Homo sapiens, UniProt P0C7P3); sequence looked up; chain MESLKTDTEMPYPEVIVDVGRVIFGEENRKKMTNSCLKRSENSRIIRAICALLNSGGGVIKAEIDDKTYSYQCHGLGQDLETSFQKLLPSGSQKYLDYMQQGHNLLIFVKSWSPDVFSLPLRICSLRSNLYRRDVTSAINLSASSALELLREKGFRAQRGRPRVKKLHPQQVLNRCIQEEEDMRILASEFFKKDKLMYKEKLNFTASTHVAFKRFTTKKVIPRIKEMLPHYVSAFANTQGGYVLIGVDDKSKEVVGCKWEKVNPDLLKKEIENCIEKLPTFHFCCEKPKVNFTTKILNVYQKDVLDGYVCVIQVEPFCCVVFAEAPDSWIMKDNSVTRLTAEQWVVMMLDTQSAPPSLVTDYNSCLISSASSARKSPGYPIKVHKFKEALQRHLFPVTQEEVQFKPESLCKKLFSDHKELEGLMKTLIHPCSQGIVIFSRSWAGDVGFRKEQNVLCDALLIAVNSPVVLYTILIDPNWPGGLEYARNTAHQLKQKLQTVGGYTGKVCIIPRLIHLSSTQSRPGEIPLRYPRSYRLADEEEMEDLLQALVVVSLSSRSLLSDQMGCEFFNLLIMEQSQLLSESLQKTRELFIYCFPGVRKTALAIKIMEKIKDLFHCKPKEILYVCESDSLKDFVTQQTTCQAVTRKTFMQGEFLKIKHIVMDETENFCSKYGNWYMKAKNITHPKAKGTGSENLHHGILWLFLDPFQIHHADVNGLPPPSAQFPRKTITSGIHCALEIAKVMKEEMKRIKENPPSNMSPDTLALFSETAYEEATCAQALPGVCETKTNLTTEQIANYVARKCHSLFQCGYLPKDIAILCRRGEDRGRYRLALLKAMELIETHRPSEVVFSPATGVWGSHIVLDSIQQFSGLERTVVFGLSPECDQSEEFHKLCFASRAIKHLYLLYEKRAAY
B11: sodN mature (Streptomyces coelicolor, UniProt P80735); sequence looked up; chain HCDLPCGVYDPAQARIEAESVKAVQEKMAGNDDPHFQTRATVIKEQRAELAKHHVSVLWSDYFKPPHFEKYPELHQLVNDTLKALSAAKGSKDPATGQKALDYIAQIDKIFWETKKA

| Molecule | tested on | test | test system | setting | scale | endpoint | value |
| --- | --- | --- | --- | --- | --- | --- | --- |
| B1 (PHYA) | itself | SEC | – | – | – | subunits per oligomer | 2 |
| B2 (human ARF3) | PP6C (human) | co-immunoprecipitation, IP-MS | CYB5R4 knockout cells | concentration not given | baseline: CYB5R4 knockout over parental | log2 fold change | 0.31 |
| B3 (ACAT1 35-427 Y214F) | itself | native gel | – | Y214F mutant | – | subunits per oligomer | 4 |
| B4 (protein) | itself | AUC | – | – | – | subunits per oligomer | 2 |
| B5 (S100B) | itself | AUC | – | – | – | subunits per oligomer | 2 |
| LSRMNREELEDSFFRLREDHMLVKELSWKQQDEIKRLRTTLLRLTAAGRDL (RPGRIP1 38-88 (Homo sapiens, UniProt Q96KN7-1); sequence looked up) | itself | SEC-MALS | – | – | – | subunits per oligomer | 2 |
| MKIITVKLPEQFLEAIDELVNTGRYGSRSEVIRAAIGDFIRKELWVTTEE (SiRe_1577 (Saccharolobus islandicus, UniProt F0NFD7); sequence looked up) | itself | SEC | – | – | – | subunits per oligomer | 2 |
| TRPV5 (Oryctolagus cuniculus, UniProt Q9XSM3) | itself | SEC | – | – | – | subunits per oligomer | 4 |
| CUCUUAACA (ssRNA) | U2AF2 | sequencing of bound RNA | RNA | motif only | – | Kd | 4.37 µM |
| B6 | itself | AUC | – | – | – | subunits per oligomer | 2 |
| RQIVDAQAVCTRCKESADFWCFECEQLLCAKCFEAHQWFLKHEARPLAE (PML 120-168 (Homo sapiens, UniProt P29590-1); sequence looked up) | itself | AUC | – | – | – | subunits per oligomer | 2 |
| PARP4, human | CYB5R4 knockout human cells | PP4 interaction, 3xFLAG-PP4C IP-MS | – | concentration not given | baseline: CYB5R4 KO over parental | log2 fold change | -2.39 |
| B7 (GGPS1 Y246D) | itself | SEC-MALS | – | – | – | subunits per oligomer | 2 |
| MKGMSKMAQFNLRWAREVLDLVRKVAEENGRSVNSEIYQRVMESFKKEGRIGA (Arc repressor 1-53 P8A/P15A (P22 phage, UniProt P03050)) | itself | SEC | – | – | – | subunits per oligomer | 2 |
| B8 (Gm4951 N86K) | itself | mass photometry | – | – | – | subunits per oligomer | 2 |
| MYOC, N-linked glycans (Homo sapiens, UniProt Q99972) | itself | cross-linking | – | – | – | subunits per oligomer | 8 |
| B9 (ddrC) | itself | SEC-MALS | – | – | – | subunits per oligomer | 1.9 ± 0.16 n-mer |
| B10 (SLFN14 E206A/E211A) | itself | SEC | – | – | – | subunits per oligomer | 2 |
| UGUUUAUAG (ssRNA) | U2AF2 | sequencing of bound RNA | RNA | motif only | – | Kd | 2.5 µM |
| B11 (sodN mature) | itself | SEC | – | – | – | subunits per oligomer | 6 |

A few entries again:
| Molecule | tested on | test | test system | setting | scale | endpoint | value |
| --- | --- | --- | --- | --- | --- | --- | --- |
| MYOC, N-linked glycans (Homo sapiens, UniProt Q99972) | itself | cross-linking | – | – | – | subunits per oligomer | 8 |
| B9 (ddrC) | itself | SEC-MALS | – | – | – | subunits per oligomer | 1.9 ± 0.16 n-mer |
| B10 (SLFN14 E206A/E211A) | itself | SEC | – | – | – | subunits per oligomer | 2 |
